Values quoted from earlier work, collected from citations in different studies.
Each line is one published result; not all experiments were run side by side. ± marks the error that the study gave.
cyp121: Mycocyclosin synthase (cyp121, Mycobacterium tuberculosis, UniProt P9WPP7)

Protein sequences, listed by entry. Tags and fused reporters are not part of them. Residues count along the entry.
UniProt P9WPP7, whole entry: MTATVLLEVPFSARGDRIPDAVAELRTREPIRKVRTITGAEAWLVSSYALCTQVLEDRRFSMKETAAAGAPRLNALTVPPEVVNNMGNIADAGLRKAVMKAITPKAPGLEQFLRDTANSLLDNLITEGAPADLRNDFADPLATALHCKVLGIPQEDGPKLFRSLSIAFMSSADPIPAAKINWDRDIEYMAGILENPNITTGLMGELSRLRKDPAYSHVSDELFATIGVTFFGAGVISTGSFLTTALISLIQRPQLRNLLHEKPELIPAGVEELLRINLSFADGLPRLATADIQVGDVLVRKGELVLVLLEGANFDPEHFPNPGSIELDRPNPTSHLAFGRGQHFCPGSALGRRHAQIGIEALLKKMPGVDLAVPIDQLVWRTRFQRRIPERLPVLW
UniProt P28065, whole entry, looked up: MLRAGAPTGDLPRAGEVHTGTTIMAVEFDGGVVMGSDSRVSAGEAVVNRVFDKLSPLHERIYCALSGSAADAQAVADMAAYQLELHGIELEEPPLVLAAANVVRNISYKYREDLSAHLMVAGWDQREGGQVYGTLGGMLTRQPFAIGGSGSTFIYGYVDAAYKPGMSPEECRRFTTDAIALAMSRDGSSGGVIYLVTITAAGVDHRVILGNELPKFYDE
UniProt P40306, whole entry, looked up: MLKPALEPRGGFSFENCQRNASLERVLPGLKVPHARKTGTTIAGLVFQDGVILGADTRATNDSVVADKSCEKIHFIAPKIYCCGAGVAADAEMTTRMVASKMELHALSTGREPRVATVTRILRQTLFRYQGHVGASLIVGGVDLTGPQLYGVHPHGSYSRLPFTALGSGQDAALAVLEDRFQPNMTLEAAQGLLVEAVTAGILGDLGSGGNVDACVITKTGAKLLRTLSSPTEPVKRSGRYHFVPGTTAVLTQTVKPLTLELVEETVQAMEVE
UniProt P25103, whole entry: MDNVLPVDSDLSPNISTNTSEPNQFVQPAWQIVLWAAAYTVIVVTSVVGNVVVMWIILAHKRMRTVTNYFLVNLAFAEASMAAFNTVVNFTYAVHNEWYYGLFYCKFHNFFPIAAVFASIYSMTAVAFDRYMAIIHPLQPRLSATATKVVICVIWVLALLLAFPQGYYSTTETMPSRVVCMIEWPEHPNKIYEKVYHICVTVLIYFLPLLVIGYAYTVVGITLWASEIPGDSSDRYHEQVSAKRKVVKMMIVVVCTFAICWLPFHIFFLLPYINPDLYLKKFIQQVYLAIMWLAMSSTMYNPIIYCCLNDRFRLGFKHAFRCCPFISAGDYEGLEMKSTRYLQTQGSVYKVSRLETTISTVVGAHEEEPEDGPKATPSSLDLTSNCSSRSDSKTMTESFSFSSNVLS
UniProt P41144, whole entry: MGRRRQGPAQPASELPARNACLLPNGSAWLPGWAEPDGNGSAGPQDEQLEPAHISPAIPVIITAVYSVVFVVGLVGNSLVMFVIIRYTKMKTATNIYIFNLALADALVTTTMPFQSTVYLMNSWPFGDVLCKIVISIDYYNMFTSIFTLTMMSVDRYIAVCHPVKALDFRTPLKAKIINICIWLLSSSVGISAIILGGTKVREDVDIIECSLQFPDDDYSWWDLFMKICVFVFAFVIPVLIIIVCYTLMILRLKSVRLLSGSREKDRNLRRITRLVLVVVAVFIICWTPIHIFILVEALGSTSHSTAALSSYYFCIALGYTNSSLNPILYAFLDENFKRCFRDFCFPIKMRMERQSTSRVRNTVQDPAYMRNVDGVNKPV
UniProt Q38C91, 1-773: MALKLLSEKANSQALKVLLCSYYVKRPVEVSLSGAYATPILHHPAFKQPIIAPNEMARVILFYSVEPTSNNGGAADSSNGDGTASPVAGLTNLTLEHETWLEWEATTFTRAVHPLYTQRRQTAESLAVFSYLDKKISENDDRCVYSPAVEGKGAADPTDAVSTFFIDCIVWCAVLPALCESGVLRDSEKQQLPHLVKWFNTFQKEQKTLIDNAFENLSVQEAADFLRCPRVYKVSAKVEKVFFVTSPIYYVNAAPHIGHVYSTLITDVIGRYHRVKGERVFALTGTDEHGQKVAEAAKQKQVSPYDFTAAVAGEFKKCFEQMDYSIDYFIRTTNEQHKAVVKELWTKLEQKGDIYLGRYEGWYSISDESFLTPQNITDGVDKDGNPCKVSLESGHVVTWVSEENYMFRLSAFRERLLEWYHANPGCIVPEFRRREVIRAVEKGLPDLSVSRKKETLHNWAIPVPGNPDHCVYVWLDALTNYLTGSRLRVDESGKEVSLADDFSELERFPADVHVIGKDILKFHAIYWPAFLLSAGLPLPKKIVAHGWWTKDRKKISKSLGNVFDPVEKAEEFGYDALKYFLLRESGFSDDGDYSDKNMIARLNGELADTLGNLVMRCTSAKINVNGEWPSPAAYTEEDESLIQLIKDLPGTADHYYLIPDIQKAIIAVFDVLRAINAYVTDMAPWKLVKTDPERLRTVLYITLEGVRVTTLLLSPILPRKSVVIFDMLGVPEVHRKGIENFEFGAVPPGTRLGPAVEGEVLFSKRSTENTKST
UniProt P9WHE9, whole entry: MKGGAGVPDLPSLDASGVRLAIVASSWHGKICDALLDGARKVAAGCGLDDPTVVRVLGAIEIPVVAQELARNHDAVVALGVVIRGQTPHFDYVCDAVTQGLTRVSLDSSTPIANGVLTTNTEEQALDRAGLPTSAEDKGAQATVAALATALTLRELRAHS
UniProt P41145, whole entry: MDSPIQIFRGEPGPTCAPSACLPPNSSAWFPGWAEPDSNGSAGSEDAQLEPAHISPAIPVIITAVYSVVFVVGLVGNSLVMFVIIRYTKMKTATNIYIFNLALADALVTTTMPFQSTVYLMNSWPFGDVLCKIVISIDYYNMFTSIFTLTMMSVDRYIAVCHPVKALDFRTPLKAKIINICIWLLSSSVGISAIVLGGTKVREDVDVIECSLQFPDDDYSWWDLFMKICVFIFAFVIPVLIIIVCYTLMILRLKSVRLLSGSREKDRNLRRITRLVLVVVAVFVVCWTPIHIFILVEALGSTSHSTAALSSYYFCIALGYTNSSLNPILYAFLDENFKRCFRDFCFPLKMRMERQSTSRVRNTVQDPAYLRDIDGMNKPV
UniProt O33336, whole entry: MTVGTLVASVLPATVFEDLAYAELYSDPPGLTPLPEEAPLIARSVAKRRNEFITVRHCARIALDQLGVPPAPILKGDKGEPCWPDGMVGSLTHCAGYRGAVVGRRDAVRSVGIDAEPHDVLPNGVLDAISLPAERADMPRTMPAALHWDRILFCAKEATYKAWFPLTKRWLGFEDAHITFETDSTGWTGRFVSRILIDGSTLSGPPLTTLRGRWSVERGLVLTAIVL

The Kd of `Cc1cnc(Nc2ccc(F)cc2Cl)nc1-c1c[nH]c(C(=O)N[C@H](CO)c2cccc(Cl)c2)c1` is reported as 0.00011 µM (ERK; binding; in vitro).
With `CCCCCCCCCCCCNC(=O)N[C@H](C(=O)N[C@H]1/C=C/CCNC(=O)/C=C/[C@H](C)NC1=O)C(C)C` the Ki was 0.194 µM (constitutive proteasome trypsin-like site; enzyme activity, inhibitor; purified proteasome).
With `CC(=O)N1CCC[C@@H]1C(=O)N[C@@H](C)C(=O)N[C@@H](Cc1ccccc1)B(O)O` the IC50 was 0.008 ± 0.002 µM (Proteasome subunit beta type-9 / Proteasome subunit beta type-10 (Homo sapiens, UniProt P28065+P40306); β1i activity, inhibitor).
`Cc1cc(O)cc(C)c1C[C@H](N)C(=O)N[C@H](CCCNC(=N)N)C(=O)N[C@H]1Cc2ccccc2CN(CC(=O)N(C)Cc2cc(C(F)(F)F)cc(C(F)(F)F)c2)C1=O` gave a Ki of 0.0005 µM (TACR1 (Homo sapiens, UniProt P25103)).
The Ki of `Cc1cc(O)cc(C)c1C[C@@H]1NC[C@H](CCCCN)NC(=O)[C@H](Cc2ccccc2)NC(=O)[C@@H](CCCNC(=N)N)NC1=O` is reported as 0.0609 ± 0.0006 µM (OPRK1 (Cavia porcellus, UniProt P41144)).
With `c1ccc2c[n+](CCCCCCCC[n+]3ccc4ccccc4c3)ccc2c1` the IC50 was 1050 µM (ACHN; cytotoxicity, MTT).
The IC50 of `CN(CCNCc1cc(Cl)cc(Cl)c1)c1nc2nc(Cl)ccc2[nH]1` is reported as under 0.05 µM (Methionyl-tRNA synthetase, putative (Trypanosoma brucei brucei, UniProt Q38C91); enzyme activity, ATP depletion).
For `CCC(=O)Nc1c(NC[C@H](O)[C@H](O)[C@H](O)CO)[nH]c(=O)[nH]c1=O`, the Ki was 110 ± 14 µM (ribH (Mycobacterium tuberculosis, UniProt P9WHE9); inhibitor; pH 7.0).
`Cc1ccc(Cn2cnc3ccccc32)cc1C` has a Kd of over 100 µM (cyp121).
For `Ic1ccc(CSCn2ccnc2)cc1`, the Ki was over 10 µM (OPRK1 (Homo sapiens, UniProt P41145)).
The long-term stability of `NCCNCCSc1ccccc1` is reported as 96.03 ± 0.56 % remaining (plasma; 100 µg/mL, 30 days, -20 °C).
`O=c1c2ccccc2[nH]c(=S)n1Cc1cccnc1` has an IC50 of 0.79 µM (4'-phosphopantetheinyl transferase PptT (Mycobacterium tuberculosis, UniProt O33336); enzyme activity, inhibitor).
The LD50 of `c1ccc2c(c1)ccc[n+]2CCCCCCCCCC[n+]1cccc2ccccc21` is reported as 45.3 mg/kg (rat; intramuscular, 24 h).
With `c1ccc(-c2cc(Cn3ccnc3)cc(-c3ccccc3)c2)cc1` the Kd was 1.3 ± 0.4 µM (cyp121).
